Measured values pooled from the literature.
Lines come from different studies, so protocols differ. ± marks the error that the study gave.

O=C(/C=C/c1cccc(S(=O)(=O)Nc2ccccc2)c1)NO[C@@H]1O[C@H](C(=O)O)[C@@H](O)[C@H](O)[C@H]1O  half-life (human mild liver dysfunction, plasma; intravenous, 400 mg/m^2, 30 min infusion, cycle 1 day -7, together with: belinostat 400 mg/m^2 iv): 4.1 h
CS(=O)(=O)n1cc2c(n1)CN([C@H]1CO[C@H](c3cc(F)ccc3F)[C@@H](N)C1)C2  half-life (healthy male human, plasma; oral, 50 mg single, fasted, geometric mean): 47.7 h
COc1cc(C(=O)NC2CCN(C)CC2)c(F)cc1Nc1ncc(C(F)(F)F)c(Oc2cccc3c2C(=O)N(C)C3)n1  half-life (human patients, plasma; oral, 200 mg once daily, steady state): 20.3 h
Nc1ccc(-c2nc([C@H]3CCc4cc(-c5cc(Cl)ccc5-n5cnnn5)cc(=O)n43)c(F)[nH]2)c(F)n1  half-life (human, plasma; oral, 80 mg once daily, day 14, fed): 27.9 h
Cc1cccc(C)c1OCC(=O)N[C@@H](Cc1ccccc1)[C@@H](O)C[C@H](Cc1ccccc1)NC(=O)[C@H](C(C)C)N1CCCNC1=O  half-life (human, HIV+/HCV+, plasma; oral, total drug, steady state, median, together with: lopinavir/ritonavir twice daily): 6.5 h
CC(C)(C)OC[C@@H]1C(=O)NCCN1C(=O)C[C@H](N)Cc1cc(F)c(F)cc1F  half-life (human, male, plasma; oral, single dose, fixed-dose combination with metformin, fed): 35.5 ± 12.9 h
CCOc1ccc(Cc2cc([C@@H]3S[C@H](CO)[C@@H](O)[C@H](O)[C@H]3O)c(OC)cc2C)cc1  half-life (human, plasma; oral, 5 mg/day, day 1, multiple dose before breakfast): 10.5 ± 2.02 h
O=C(c1ccc(OCCN2CCCCC2)cc1)c1c(-c2ccc(O)cc2)sc2cc(O)ccc12  half-life (healthy humans, plasma; oral, 60 mg, together with: acute green tea): 23.4 h
C=C(C)[C@@H]1CC[C@]2(NCCN3CCS(=O)(=O)CC3)CC[C@]3(C)[C@H](CC[C@@H]4[C@@]5(C)CC=C(C6=CC[C@@](CF)(C(=O)O)CC6)C(C)(C)[C@@H]5CC[C@]43C)[C@@H]12  half-life (healthy human volunteers; oral, 200 mg, tablet, moderate-fat meal, arithmetic mean): 26.5 h
CC[C@@H]1C(=O)N(C)c2cnc(Nc3ccc(C(=O)N[C@H]4CC[C@H](N5CCN(CC6CC6)CC5)CC4)cc3OC)nc2N1C(C)C  half-life (human, plasma; intravenous infusion, 200 mg over 2 h, first infusion, geometric mean): 139 h
O=C(NC[C@H](O)CO)c1ccncc1Nc1ccc(I)cc1F  half-life (human patients, plasma; oral, 60 mg single dose, day 1, median, together with: FOLFIRI): 5.56 h
CCCCC1(CCCC)CN(c2ccccc2)c2cc(SC)c(OCC(=O)N[C@@H](C(=O)NCC(=O)O)c3ccccc3)cc2S(=O)(=O)C1  half-life (LC-MS/MS; human, plasma; oral, 15 mg, single dose, fasted): 9.9 h
NC(=O)N1CCC(CC(=O)N2CCC([C@H]3c4ncc(Br)cc4CCc4cc(Cl)cc(Br)c43)CC2)CC1  half-life (human, plasma; oral, 100 mg twice daily, cycle 2 day 15, multiple dose, together with: gemcitabine 1000 mg/m2): 3.79 h
CN1CCN(c2ccc3nc(-c4c(N)c5c(F)cccc5[nH]c4=O)[nH]c3c2)CC1  half-life (human, plasma; oral, 300 mg, day 1, median, together with: gemcitabine and capecitabine): 15.3 h
CCn1c(C(=O)c2cc(C)cc(C#N)c2)c(C(C)C)c(=O)[nH]c1=O  half-life (healthy humans, plasma; oral, 150 mg once daily, 7 days): 25.9 ± 13.1 h
O=C(c1cccnc1-c1ccncc1)N1CCC(O)(Cc2ccccc2)CC1  half-life (healthy human, plasma; oral, 400 mg once daily, day 1, arithmetic mean): 4.67 h
CCOC(=O)C1=C[C@@H](OC(CC)CC)[C@H](NC(C)=O)[C@@H](N)C1  half-life (healthy Indian human, plasma; oral, 75 mg single, test capsule fed): 4.82 ± 2.19 h
COc1cc(N2CCC(N3CCN(C)CC3)CC2)ccc1Nc1ncc(Cl)c(Nc2ccccc2P(C)(C)=O)n1  half-life (healthy humans, plasma; oral, 90 mg, together with: itraconazole 200 mg twice daily): 44.9 h
CCS(=O)(=O)N1CC(CC#N)(n2cc(-c3ncnc4[nH]ccc34)cn2)C1  half-life (healthy Chinese human subjects, plasma; oral, 4 mg, single dose, mean): 7.36 h
CO[C@H]1C[C@@H]2CC[C@@H](C)[C@@](O)(O2)C(=O)C(=O)N2CCCC[C@H]2C(=O)O[C@H]([C@H](C)C[C@@H]2CC[C@@H](O)[C@H](OC)C2)CC(=O)[C@H](C)/C=C(\C)[C@@H](O)[C@@H](OC)C(=O)[C@H](C)C[C@H](C)/C=C/C=C/C=C/1C  half-life (human, whole blood; oral, 30 mg, without grapefruit juice): 30 h
Cc1ccc(NC(=O)c2ccc(CN3CCN(C)CC3)cc2)cc1Nc1nccc(-c2cncc(-c3oncc3C)c2)n1  half-life (older healthy human adults, plasma; oral, 125 mg single dose, fed, mean): 30.2 h
CCCOc1ccc([C@H]2CNC(=O)N2c2ccc3[nH]cnc3c2)cc1  half-life (human, fasted, elderly, CSF; oral, 500 mg twice daily, tablet, day 11, geometric mean): 6.91 h
CCCC[C@H](NC(C)=O)C(=O)N[C@H]1CCC(=O)NC[C@@H](C(=O)N[C@@H](Cc2c[nH]c3ccccc23)C(N)=O)NC(=O)[C@H](CCCNC(=N)N)NC(=O)[C@@H](Cc2ccccc2)NC(=O)[C@H](Cc2c[nH]cn2)NC1=O  half-life (healthy human volunteers, plasma; subcutaneous, 1.0 mg once daily, day 7): 7.1 h
O=C(CCCCCCC(=O)Nc1ccccc1)NO  half-life (human patients; oral, 100 to 400 mg twice daily, all dose levels): 1.2 to 2.4 h
CCOc1ccc(Cc2cc([C@]34OC[C@](CO)(O3)[C@@H](O)[C@H](O)[C@H]4O)ccc2Cl)cc1  half-life (human, plasma; oral, 15 mg, together with: sitagliptin 100 mg): 14.2 ± 4.55 h
COCCCCn1c(C(=O)N(CC(C)C)[C@@H]2CNC[C@H](C(=O)N3CCOCC3)C2)nc2ccccc21  half-life (non-elderly human, plasma; oral, 160 mg once daily, day 1): 8 h
CC(C)(Sc1ccncc1-c1ccc(C#N)c2ccccc12)C(=O)O  half-life (human; oral, 2.5 mg, together with: febuxostat 80 mg): 12.5 h
C=CC(=O)N1CCC(CNc2ncnc(N)c2-c2ccc(Oc3ccccc3)cc2)CC1  half-life (human, plasma; 25 to 200 mg once daily, multiple dose): 1.6 to 3.6 h
CN(Cc1nc2c(N)nc(N)nc2[nH]c1=O)c1ccc(C(=O)N[C@@H](CCC(=O)O)C(=O)O)cc1  half-life (human, plasma; oral, 15 mg methotrexate, day 1, alone, arithmetic mean): 12 h
C[C@H](N)C(=O)N1C[C@H](CCCB(O)O)[C@](N)(C(=O)O)C1  half-life (human, plasma; oral, dose not given, cycle 1 day 1, all doses pooled): 5.6 ± 1 h
CO[C@H]1C[C@@H]2CC[C@@H](C)[C@@](O)(O2)C(=O)C(=O)N2CCCC[C@H]2C(=O)O[C@H]([C@H](C)C[C@@H]2CC[C@@H](O)[C@H](OC)C2)CC(=O)[C@H](C)/C=C(\C)[C@@H](O)[C@@H](OC)C(=O)[C@H](C)C[C@H](C)/C=C/C=C/C=C/1C  half-life (healthy human subjects, whole blood; oral, 2 mg single dose, arithmetic mean, together with: isavuconazole 200 mg once daily after loading): 78.5 h
COc1cc2ncnc(Nc3ccc(F)c(Cl)c3)c2cc1OCCCN1CCOCC1  half-life (human, plasma; oral, 250 mg, together with: vorinostat 200 mg): 20.2 ± 7.3 h
Cc1[nH]c(/C=C2\C(=O)Nc3ccccc32)c(C)c1CCC(=O)O  half-life (HPLC-UV; human, cancer patients, plasma; oral, 400 mg/m^2 three times daily, after meal, second dose): 1.99 h

A few entries again:
C=CC(=O)N1CCC(CNc2ncnc(N)c2-c2ccc(Oc3ccccc3)cc2)CC1  half-life (human, plasma; 25 to 200 mg once daily, multiple dose): 1.6 to 3.6 h
CN(Cc1nc2c(N)nc(N)nc2[nH]c1=O)c1ccc(C(=O)N[C@@H](CCC(=O)O)C(=O)O)cc1  half-life (human, plasma; oral, 15 mg methotrexate, day 1, alone, arithmetic mean): 12 h
